Results pooled from the literature.
Each line is one published result; not all experiments were run side by side. “And” joins repeats or separate records; there may be more than shown. ± gives the spread as reported.

COc1c(N2CC3CCCNC3C2)c(F)cc2c(=O)c(C(=O)OCc3ccc([N+](=O)[O-])s3)cn(C3CC3)c12 (centres unmarked)
reduction potential (cyclic voltammetry; anhydrous acetonitrile; concentration not given; reference: Ag/AgCl): -0.88 V

N=C(N)NCCC[C@@H](NC(=O)[C@H](N)Cc1c[nH]c2ccccc12)C(=O)N[C@H](CCCCN)C(=O)N[C@H](Cc1c[nH]c2ccccc12)C(=O)N[C@H](CCCNC(=N)N)C(=O)N[C@H](CCCCN)C(=O)N[C@H](Cc1c[nH]c2ccccc12)C(=O)N[C@H](CCCNC(=N)N)C(=O)N[C@H](CCCCN)C(=O)N[C@H](Cc1c[nH]c2ccccc12)C(=O)N[C@H](CCCNC(=N)N)C(=O)N[C@H](CCCCN)C(N)=O
survival (mouse; intraperitoneal, 30 mg/kg single dose, day 4): 100%

O=C1NC2(CC2)COc2ncc(F)cc2[C@H]2COCCN2c2ccn3ncc1c3n2
mean corpuscular volume (Sprague-Dawley rat, male, blood; oral, 10 mg/kg/day, 4 weeks, end of treatment, subacute toxicity): 66.4 ± 3.3 fL

CC1(C)C(=O)N(c2ccc(C#N)c(C(F)(F)F)c2)C(=S)N1c1ccc(C(=O)O)c(F)c1
MRT (male human, plasma; oral, 40 mg, single dose, fasted): 299 h

CC[C@H](C)[C@H](NC(=O)CNC(=O)[C@H](CCSC)NC(=O)[C@H](CCC(N)=O)NC(=O)[C@H](C)NC(=O)[C@H](CCC(N)=O)NC(=O)[C@@H](NC(=O)[C@H](CC(C)C)NC(=O)[C@H](C)NC(=O)[C@H](CO)NC(=O)[C@H](CCSC)NC(=O)[C@H](CCC(=O)O)NC(=O)[C@H](CC(C)C)NC(=O)[C@H](Cc1ccc(O)cc1)NC(=O)[C@H](CO)NC(=O)[C@H](CCC(=O)O)NC(=O)[C@H](CCC(N)=O)NC(=O)[C@H](CCCNC(=N)N)NC(=O)[C@H](CCCCN)NC(=O)[C@H](CC(=O)O)NC(=O)[C@H](CC(C)C)NC(=O)[C@H](CC(N)=O)NC(=O)[C@H](Cc1ccccc1)NC(=O)[C@H](CCC(=O)O)NC(=O)[C@H](CCCCN)NC(=O)[C@@H](NC(=O)[C@H](CC(C)C)NC(=O)[C@H](CCC(=O)O)NC(=O)[C@H](CCC(=O)O)NC(=O)[C@@H](NC(=O)[C@@H](NC(=O)[C@H](CCCNC(=N)N)NC(=O)[C@H](CCCCN)NC(=O)[C@H](C)NC(=O)[C@H](Cc1ccccc1)NC(=O)[C@H](CCC(=O)O)NC(=O)[C@H](CCC(=O)O)NC(=O)[C@H](CC(C)C)NC(=O)[C@@H](N)CO)C(C)C)C(C)C)C(C)C)[C@@H](C)CC)C(=O)N[C@@H](CO)C(=O)N[C@@H](CCC(=O)O)C(=O)N[C@@H](CCCNC(=N)N)C(=O)N[C@H](C(=O)N[C@H](C(=O)N[C@@H](CCC(=O)O)C(=O)N[C@H](C(=O)N[C@H](C(=O)N[C@@H](CC(C)C)C(=O)N[C@@H](CCCNC(=N)N)C(=O)N[C@@H](Cc1c[nH]cn1)C(=O)N[C@@H](C)C(=O)N[C@@H](C)C(=O)N[C@@H](CCC(N)=O)C(=O)N[C@H](C(=O)N[C@@H](CC(C)C)C(=O)N[C@@H](CCCCN)C(=O)O)[C@@H](C)O)C(C)C)[C@@H](C)CC)[C@@H](C)CC)[C@@H](C)CC
half-life (male mouse, plasma; intravenous, 1 mg/kg): 2.66 h

CCn1ccc(-c2cc([C@@H](C)NC(=O)c3cc(N4CCN(C)[C@H](C)C4)ccc3C)c3ccccc3n2)n1
viability (Vero E6; 500 µM): 1.91% and 0.716% and 2.15%

C=CC(=O)Nc1cccc(Cn2ncc3cnc(Nc4cnn(CCOC)c4)nc32)c1
serum AST (Sprague-Dawley rat female, serum; oral, 180 mg/kg, day 28, 28-day subacute toxicity): 75.8 ± 42 U/L

Cc1ccc(N(C)C2CN(C)C2)cc1C(=O)N[C@H](C)c1cc(-c2cnn(C)c2)nc2ccccc12
viability (Vero E6; 500 µM): 1.24% and 1.09%

CC[C@H](C)[C@H](NC(=O)[C@H](CCCCN)NC(=O)CNC(=O)[C@H](CC(C)C)NC(=O)[C@H](Cc1ccccc1)NC(=O)[C@H](CCCCN)NC(=O)[C@H](CO)NC(=O)[C@H](Cc1ccccc1)NC(=O)[C@H](Cc1c[nH]c2ccccc12)NC(=O)[C@H](CCC(N)=O)NC(=O)[C@@H](NC(=O)[C@H](Cc1ccccc1)NC(=O)CCCCCNC(=O)CN1CCN(CC(=O)O)CCN(CC(=O)O)CCN(CC(=O)O)CC1)C(C)C)C(=O)N[C@@H](CCC(=O)O)C(=O)N1CCC[C@H]1C(=O)N[C@@H](CC(=O)O)C(=O)N[C@H](C(=O)N[C@@H](CO)C(=O)N[C@@H](CCC(N)=O)C(=O)N[C@H](C(=O)N[C@@H](CCC(N)=O)C(=O)N[C@@H](CC(=O)O)C(=O)N1CCC[C@H]1C(=O)N[C@@H](CC(N)=O)C(=O)N[C@@H](CC(=O)O)C(=O)N[C@@H](CCC(N)=O)C(=O)N[C@@H](Cc1ccc(O)cc1)C(=O)N[C@@H](CCC(=O)O)C(=O)N1CCC[C@H]1C(=O)N[C@@H](Cc1ccccc1)C(=O)O)C(C)C)C(C)C [copper-64 labelled]
tissue uptake (C57BL/6 mice, male, tumour-free, spleen; 2 h): 2.22 ± 0.3 %ID/g

CC[C@H](C)[C@H](NC(=O)CNC(=O)[C@H](CC(C)C)NC(=O)[C@H](Cc1ccccc1)NC(=O)CN)C(=O)N[C@@H](CC(C)C)C(=O)N[C@@H](Cc1ccccc1)C(=O)N[C@@H](Cc1c[nH]cn1)C(=O)NCC(=O)N[C@H](C(=O)N[C@@H](Cc1c[nH]cn1)C(=O)N[C@@H](Cc1c[nH]cn1)C(=O)NCC(=O)N[C@@H](CCCNC(=N)N)C(=O)N[C@@H](CCCCN)C(=O)N[C@@H](CCCCN)C(=O)N[C@@H](C)C(=O)N[C@@H](CC(C)C)C(=O)N[C@@H](Cc1c[nH]cn1)C(=O)N[C@@H](CCSC)C(=O)N[C@@H](CC(N)=O)C(=O)N[C@@H](CO)C(=O)N[C@@H](CCC(=O)O)C(=O)N[C@@H](CCCNC(=N)N)C(=O)N[C@@H](CCCNC(=N)N)C(=O)N[C@@H](CO)C(=O)O)C(C)C
acute toxic concentration (zebrafish embryos 4 hpf, E3 medium; 1 h): 25 µM

COc1cnc2cccc(N3CCc4c(cc(Cn5ccnc5)cc4-c4cn(C)nc4C(F)(F)F)C3=O)c2c1
body weight (BALB/c nude mice, MV4-11 xenograft; intraperitoneal, 50 mg/kg, day 14): 22.2 g and 23.6 g and 24 g and 25.2 g and 21.2 g

CC(C)[C@H](NC(=O)[C@@H](NC(=O)[C@H](CCCNC(=N)N)NC(=O)[C@H](CCCNC(=N)N)NC(=O)[C@H](CCCNC(=N)N)NC(=O)[C@H](CCC(N)=O)NC(=O)[C@H](CCCNC(=N)N)NC(=O)[C@H](CCCNC(=N)N)NC(=O)[C@H](CCCCN)NC(=O)[C@H](CCCCN)NC(=O)[C@H](CCCNC(=N)N)NC(=O)CN)[C@@H](C)O)C(=O)N[C@H](C(=O)N[C@@H](CO)C(=O)N1CCC[C@H]1C(=O)O)[C@@H](C)O
organ weight (ICR mice, female, brain; intranasal, 5 mg/kg daily, 4 weeks): 0.575 ± 0.033 g

C[C@H](O)[C@@H](NC(=O)[C@H]1CCCN1C(=O)[C@@H](CCCCN)NC(=O)[C@@H](CO)NC(=O)[C@@H](Cc1ccc(O)cc1)NC(=O)[C@@H](CC(N)=O)NC(=O)CCOCCOCCOCCNC(=O)CN1CCN(CC(=O)O)CCN(CC(=O)O)CCN(CC(=O)O)CC1)C(=O)N[C@H](CC(=O)O)C(=O)N[C@H](CCCNC(=N)N)C(=O)N[C@H](CCC(N)=O)C(=O)N[C@H](Cc1ccc(O)cc1)C(=O)N[C@H](Cc1c[nH]cn1)C(=O)N[C@H](Cc1ccccc1)C(N)=O [copper-64 labelled]
tissue uptake (C57BL/6J mice, spleen; intravenous, 1.85 MBq, 0.6667 h, radiolabelled): 1.27 ± 1.32 %ID/g

CSCC[C@@H]1NC(=O)[C@H](C(C)C)NC(=O)[C@H](CCCNC(=N)N)NC(=O)[C@@H]2CCCN2C(=O)CNC(=O)[C@@H](NC(=O)CNC(=O)[C@H](CO)NC(=O)CNC(=O)[C@H](CO)NC(=S)Nc2ccc(C[C@H]3CN(CC(=O)O)CCN(CC(=O)O)CCN3CC(=O)O)cc2)CSSC[C@@H](C(N)=O)NC(=O)[C@@H]2CCCN2C(=O)CNC(=O)[C@H](CCC(=O)O)NC(=O)[C@H](CC(=O)O)NC(=O)[C@H](CC(=O)O)NC(=O)CNC(=O)[C@H](CC(C)C)NC(=O)[C@H](Cc2c[nH]cn2)NC(=O)[C@H](CC(C)C)NC(=O)CNC(=O)[C@H](Cc2c[nH]cn2)NC1=O [copper-64 labelled]
albumin-bound radioactivity (SE-HPLC; rat serum; concentration not given, 1 h, 37 °C): 3.3%

Some of these lines once more:
CC[C@H](C)[C@H](NC(=O)CNC(=O)[C@H](CC(C)C)NC(=O)[C@H](Cc1ccccc1)NC(=O)CN)C(=O)N[C@@H](CC(C)C)C(=O)N[C@@H](Cc1ccccc1)C(=O)N[C@@H](Cc1c[nH]cn1)C(=O)NCC(=O)N[C@H](C(=O)N[C@@H](Cc1c[nH]cn1)C(=O)N[C@@H](Cc1c[nH]cn1)C(=O)NCC(=O)N[C@@H](CCCNC(=N)N)C(=O)N[C@@H](CCCCN)C(=O)N[C@@H](CCCCN)C(=O)N[C@@H](C)C(=O)N[C@@H](CC(C)C)C(=O)N[C@@H](Cc1c[nH]cn1)C(=O)N[C@@H](CCSC)C(=O)N[C@@H](CC(N)=O)C(=O)N[C@@H](CO)C(=O)N[C@@H](CCC(=O)O)C(=O)N[C@@H](CCCNC(=N)N)C(=O)N[C@@H](CCCNC(=N)N)C(=O)N[C@@H](CO)C(=O)O)C(C)C
acute toxic concentration (zebrafish embryos 4 hpf, E3 medium; 1 h): 25 µM
